# Assay results gathered from unrelated publications.
# A part holds a random share of what one study measured. “And” joins repeats or separate records; there may be more than shown.
# Sequence of UniProt Q9Y6R4 (whole entry, looked up): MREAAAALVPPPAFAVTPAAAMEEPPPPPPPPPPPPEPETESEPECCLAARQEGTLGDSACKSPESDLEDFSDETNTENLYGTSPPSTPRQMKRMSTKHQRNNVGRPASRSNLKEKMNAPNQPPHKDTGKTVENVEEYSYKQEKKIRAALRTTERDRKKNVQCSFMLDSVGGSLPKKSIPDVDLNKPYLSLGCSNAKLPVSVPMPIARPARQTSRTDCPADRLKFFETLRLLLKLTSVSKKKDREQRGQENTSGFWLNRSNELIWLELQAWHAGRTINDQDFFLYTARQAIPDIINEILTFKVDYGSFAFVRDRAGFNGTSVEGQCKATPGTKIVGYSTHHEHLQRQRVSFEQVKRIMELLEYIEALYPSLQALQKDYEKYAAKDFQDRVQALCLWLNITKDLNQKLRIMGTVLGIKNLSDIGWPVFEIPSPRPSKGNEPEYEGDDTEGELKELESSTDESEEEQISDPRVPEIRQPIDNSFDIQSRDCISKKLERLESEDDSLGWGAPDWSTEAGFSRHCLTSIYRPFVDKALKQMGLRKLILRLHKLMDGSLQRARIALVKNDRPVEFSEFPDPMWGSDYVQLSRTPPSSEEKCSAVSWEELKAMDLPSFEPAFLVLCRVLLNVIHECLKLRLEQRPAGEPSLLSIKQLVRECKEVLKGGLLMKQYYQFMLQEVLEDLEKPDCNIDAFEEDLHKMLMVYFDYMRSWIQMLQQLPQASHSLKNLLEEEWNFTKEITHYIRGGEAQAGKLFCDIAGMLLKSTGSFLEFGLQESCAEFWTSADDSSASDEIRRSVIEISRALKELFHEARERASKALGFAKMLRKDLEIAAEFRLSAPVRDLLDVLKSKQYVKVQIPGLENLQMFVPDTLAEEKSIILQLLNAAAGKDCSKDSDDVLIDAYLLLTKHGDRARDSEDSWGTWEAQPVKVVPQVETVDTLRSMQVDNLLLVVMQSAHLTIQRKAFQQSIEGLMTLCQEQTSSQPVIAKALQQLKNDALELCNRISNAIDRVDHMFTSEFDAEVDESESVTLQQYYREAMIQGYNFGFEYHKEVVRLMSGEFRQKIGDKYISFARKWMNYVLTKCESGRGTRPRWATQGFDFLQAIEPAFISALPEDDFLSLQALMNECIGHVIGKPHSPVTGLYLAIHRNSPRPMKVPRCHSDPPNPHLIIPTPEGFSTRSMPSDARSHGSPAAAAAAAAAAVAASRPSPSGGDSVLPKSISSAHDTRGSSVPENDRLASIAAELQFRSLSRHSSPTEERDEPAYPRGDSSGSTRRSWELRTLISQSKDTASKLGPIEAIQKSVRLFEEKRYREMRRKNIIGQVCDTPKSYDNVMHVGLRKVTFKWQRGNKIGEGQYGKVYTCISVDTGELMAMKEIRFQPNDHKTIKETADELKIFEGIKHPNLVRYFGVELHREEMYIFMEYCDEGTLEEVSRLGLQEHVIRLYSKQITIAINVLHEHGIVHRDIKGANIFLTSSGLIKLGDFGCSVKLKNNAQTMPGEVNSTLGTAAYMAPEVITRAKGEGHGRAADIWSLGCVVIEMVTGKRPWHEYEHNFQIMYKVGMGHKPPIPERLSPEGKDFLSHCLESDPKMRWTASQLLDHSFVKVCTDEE
# Sequence of UniProt P49841 (whole entry, looked up): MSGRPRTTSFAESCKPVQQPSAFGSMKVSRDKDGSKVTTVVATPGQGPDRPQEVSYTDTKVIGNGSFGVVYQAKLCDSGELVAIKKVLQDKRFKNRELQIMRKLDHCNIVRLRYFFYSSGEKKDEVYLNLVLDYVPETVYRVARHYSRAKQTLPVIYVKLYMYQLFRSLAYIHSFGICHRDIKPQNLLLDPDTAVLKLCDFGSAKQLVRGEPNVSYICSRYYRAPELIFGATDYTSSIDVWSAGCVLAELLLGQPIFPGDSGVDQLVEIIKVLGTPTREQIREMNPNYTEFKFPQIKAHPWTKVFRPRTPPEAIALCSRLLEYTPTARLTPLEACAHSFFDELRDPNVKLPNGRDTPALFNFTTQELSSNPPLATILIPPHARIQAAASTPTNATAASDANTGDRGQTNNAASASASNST
# Sequence of UniProt O75460 (whole entry, looked up): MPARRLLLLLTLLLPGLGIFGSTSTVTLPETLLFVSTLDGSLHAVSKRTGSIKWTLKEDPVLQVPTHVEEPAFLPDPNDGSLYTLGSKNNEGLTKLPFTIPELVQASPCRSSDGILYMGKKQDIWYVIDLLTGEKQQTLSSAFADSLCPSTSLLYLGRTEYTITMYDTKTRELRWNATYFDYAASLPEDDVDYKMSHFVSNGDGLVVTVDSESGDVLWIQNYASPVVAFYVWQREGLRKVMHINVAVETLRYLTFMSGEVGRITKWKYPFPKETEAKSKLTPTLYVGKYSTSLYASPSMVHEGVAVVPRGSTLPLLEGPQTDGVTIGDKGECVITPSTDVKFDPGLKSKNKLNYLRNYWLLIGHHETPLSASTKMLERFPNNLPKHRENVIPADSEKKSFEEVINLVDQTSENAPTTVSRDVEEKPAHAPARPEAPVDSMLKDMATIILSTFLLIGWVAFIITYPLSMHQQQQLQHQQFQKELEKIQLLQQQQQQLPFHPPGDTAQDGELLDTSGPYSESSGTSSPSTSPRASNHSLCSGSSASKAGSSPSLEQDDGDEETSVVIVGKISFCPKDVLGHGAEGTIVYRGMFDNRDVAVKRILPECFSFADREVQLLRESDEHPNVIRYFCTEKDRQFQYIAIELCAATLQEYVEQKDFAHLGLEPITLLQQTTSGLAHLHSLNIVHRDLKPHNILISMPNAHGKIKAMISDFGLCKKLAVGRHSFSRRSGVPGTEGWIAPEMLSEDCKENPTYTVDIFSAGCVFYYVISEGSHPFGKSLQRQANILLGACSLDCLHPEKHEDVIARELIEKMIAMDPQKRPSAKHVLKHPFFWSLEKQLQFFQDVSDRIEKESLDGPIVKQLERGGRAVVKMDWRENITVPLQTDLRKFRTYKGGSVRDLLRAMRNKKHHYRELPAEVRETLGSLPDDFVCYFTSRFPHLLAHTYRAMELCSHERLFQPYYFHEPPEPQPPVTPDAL
# Sequence of UniProt Q15759 (whole entry, looked up): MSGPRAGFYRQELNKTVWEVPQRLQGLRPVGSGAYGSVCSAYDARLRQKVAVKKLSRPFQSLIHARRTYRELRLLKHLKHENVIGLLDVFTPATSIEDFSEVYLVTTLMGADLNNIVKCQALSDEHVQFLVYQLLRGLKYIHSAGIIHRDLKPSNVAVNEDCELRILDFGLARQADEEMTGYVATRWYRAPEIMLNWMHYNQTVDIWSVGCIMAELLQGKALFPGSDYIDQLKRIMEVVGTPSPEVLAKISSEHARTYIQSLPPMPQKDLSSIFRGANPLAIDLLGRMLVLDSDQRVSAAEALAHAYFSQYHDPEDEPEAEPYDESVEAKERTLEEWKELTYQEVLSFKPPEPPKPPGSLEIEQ
# Sequence of UniProt Q9NSY1 (whole entry, looked up): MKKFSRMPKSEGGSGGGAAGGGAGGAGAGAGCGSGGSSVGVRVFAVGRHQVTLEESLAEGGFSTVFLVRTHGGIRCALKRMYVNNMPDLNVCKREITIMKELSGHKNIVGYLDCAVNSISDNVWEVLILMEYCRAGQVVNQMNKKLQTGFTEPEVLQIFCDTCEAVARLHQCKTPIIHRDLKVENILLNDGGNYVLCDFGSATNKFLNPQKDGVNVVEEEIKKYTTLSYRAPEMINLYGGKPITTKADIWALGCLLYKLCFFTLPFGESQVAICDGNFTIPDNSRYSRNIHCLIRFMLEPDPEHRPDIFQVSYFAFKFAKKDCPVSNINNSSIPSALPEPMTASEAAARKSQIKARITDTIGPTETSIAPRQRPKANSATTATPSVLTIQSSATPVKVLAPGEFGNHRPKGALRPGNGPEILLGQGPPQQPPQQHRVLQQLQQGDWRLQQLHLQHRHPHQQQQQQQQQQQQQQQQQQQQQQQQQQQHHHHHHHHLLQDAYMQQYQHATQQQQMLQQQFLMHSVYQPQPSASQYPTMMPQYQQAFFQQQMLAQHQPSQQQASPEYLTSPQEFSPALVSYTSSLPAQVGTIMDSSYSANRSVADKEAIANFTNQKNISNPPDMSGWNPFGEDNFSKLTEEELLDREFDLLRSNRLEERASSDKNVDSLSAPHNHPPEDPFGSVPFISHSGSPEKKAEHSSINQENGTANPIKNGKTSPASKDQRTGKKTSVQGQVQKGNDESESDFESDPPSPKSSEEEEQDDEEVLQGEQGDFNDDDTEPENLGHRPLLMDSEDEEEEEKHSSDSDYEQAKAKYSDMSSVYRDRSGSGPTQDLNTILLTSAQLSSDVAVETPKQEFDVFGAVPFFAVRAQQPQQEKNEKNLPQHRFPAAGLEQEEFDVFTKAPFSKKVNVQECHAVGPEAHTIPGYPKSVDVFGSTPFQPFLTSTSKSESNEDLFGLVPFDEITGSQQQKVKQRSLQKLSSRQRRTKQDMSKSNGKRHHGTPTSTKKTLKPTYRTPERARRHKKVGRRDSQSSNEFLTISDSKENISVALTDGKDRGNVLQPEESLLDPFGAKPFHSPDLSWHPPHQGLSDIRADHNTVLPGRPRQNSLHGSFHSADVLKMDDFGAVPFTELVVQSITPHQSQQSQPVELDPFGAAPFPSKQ

# Series 1
# Target: Cyclin-dependent kinase 2, with cyclin A (CDK2, Homo sapiens, UniProt P24941)
# Read-out: enzyme activity
# Mode: inhibitor
# Tested at: 0.5 µM
# Relative to: control
Structure (SMILES),remaining activity [%]
O=c1c(-c2ccc(F)cc2)c(-c2ccncc2)[nH]n1-c1ccc(Cl)cc1,89.9
CCCCc1c(-c2ccc(O)cc2)[nH]c2nccnc12,22.4
CCN(CC)CCCCN1c2ccccc2Oc2ccc(Cl)cc21,98.7
O=C1NC(=O)c2c1c1c3ccccc3[nH]c1n1cncc21,75.9
CC(C)n1cnc2c(Nc3cccc(Cl)c3)nc(NCCO)nc21,42
CCCNC(=O)Nc1ccc(Oc2ncnc3cc(OC)c(OC)cc23)cc1Cl,92.8
FC(F)(F)c1ccc(/C=C/c2nc(COc3ccc(CCCCn4ccnn4)cc3)co2)cc1,87.9
O=C1NC(=O)c2c1c1c3ccccc3[nH]c1c1[nH]c3cc(Br)ccc3c21,52.5
Oc1cccc(-c2nc(N3CCOCC3)c3oc4ncccc4c3n2)c1,104
Clc1ccc(Nc2nnc(Cc3ccncc3)c3ccccc23)cc1,87.7
COc1cccc(-c2cc(=O)c3ccccc3o2)c1N,102
COc1cc2c(N3CCN(C(=O)Nc4ccc(OC(C)C)cc4)CC3)ncnc2cc1OCCCN1CCCCC1,93.3
CCCCc1c(-c2ccc(OC)cc2)[nH]c2nccnc12,36.3
NC(=O)c1ccc(-c2nc(-c3ccc4c(c3)OCCO4)c(-c3ccccn3)[nH]2)cc1,95
O=Nc1c(-c2c(O)[nH]c3ccccc23)[nH]c2ccccc12,29.6
N#CC(c1ccnc(NCCc2cccnc2)n1)c1nc2ccccc2s1 (stereo not shown),94.4
O=C1NC(=O)/C(=C/c2ccc3c(c2)OC(F)(F)O3)S1,107
CC(C)(C)c1nc2c3cc[nH]c(=O)c3c3cc(F)ccc3c2[nH]1,86.2
c1ccc2c(-c3ccncc3)c[nH]c2c1,99.7
CNc1cc2c(Nc3cccc(Br)c3)ncnc2cn1,106
c1cc(-c2cnn3cc(-c4ccc(OCCN5CCCCC5)cc4)cnc23)ccn1,87.7
CC(C)N(CCC(=O)c1ccc2ccccc2c1)Cc1ccccc1,109
O=C1Nc2ccccc2/C1=C\c1c(Cl)[nH]c2ccccc12,91.5
c1ccc(-c2n[nH]c3c2oc2ccccc23)cc1,88.1
N#Cc1cnc2cnc(NCc3cccnc3)cc2c1Nc1ccc(F)c(Cl)c1,75.1

# Series 2
# Cell line: HaCaT
# Tested at: 100 µM
# Time: 36 h
Structure (SMILES),viability [%]
OCCc1ccccc1,79.5
C[C@H](CCC(=O)O)[C@H]1CC[C@H]2[C@@H]3CC[C@@H]4C[C@H](O)CC[C@]4(C)[C@H]3CC[C@]12C,77.6
Cc1onc(-c2ccccc2)c1C(=O)N[C@@H]1C(=O)N2[C@@H]1SC(C)(C)[C@@H]2C(=O)O,96.6
O=C(c1cc(Cc2n[nH]c(=O)c3ccccc23)ccc1F)N1CCN(C(=O)C2CC2)CC1,88
O=c1ccc2ccc(OCCCCN3CCN(c4cccc5sccc45)CC3)cc2[nH]1,6.2
NC[C@H]1O[C@H](O[C@H]2[C@H](O)[C@@H](O[C@H]3O[C@H](CO)[C@@H](O)[C@H](N)[C@H]3O)[C@H](N)C[C@@H]2N)[C@H](N)C[C@@H]1O,99
N=C(N)N,88.1

# Series 3
# Cell line: mouse MPNST tumor cells
# Method: high-content nuclear imaging
# Refers to: cell number
# Tested at: 10 µM
# Time: 12 h
# Setting: mean of 2 replicates
# Relative to: plate mean
# Reading: higher = more cells
SMILES,nuclei count
NC(=O)N1c2ccccc2C=Cc2ccccc21,-1.04 z-score and 1.46 z-score
Cc1ccc(-c2csc3ncnc(SCCC(=O)O)c23)cc1,2.66 z-score
COc1ccc(S(=O)(=O)c2cc(OC)ccc2S(=O)(=O)c2ccc([C@H](C)NS(C)(=O)=O)cc2)cc1,0.731 z-score
NCCCOc1cc2ccccc2cc1C(=O)NCCOc1cc2ccccc2cc1C(=O)Nc1ccc(Cl)cc1O,-6.33 z-score
Cn1c(=O)c2c(ncn2CC2OCCO2)n(C)c1=O,0.888 z-score
OCCN1CCN(CC/C=C2/c3ccccc3Sc3ccc(Cl)cc32)CC1,-4.37 z-score
C[C@H](O)C(=O)Nc1c(I)c(C(=O)NC(CO)CO)c(I)c(C(=O)NC(CO)CO)c1I,1.68 z-score
COc1cc(N)c(Cl)cc1C(=O)NC1CCN(Cc2ccccc2)CC1,1.73 z-score
COC(=O)Nc1nc2ccc(SC(C)C)cc2[nH]1,-3.12 z-score

# Series 4
# Target: Diamine acetyltransferase 1 (Homo sapiens, UniProt P21673)
# Mode: inhibitor
# Tested at: 10 µM
# Relative to: control
# Target sequence (P21673 1-171): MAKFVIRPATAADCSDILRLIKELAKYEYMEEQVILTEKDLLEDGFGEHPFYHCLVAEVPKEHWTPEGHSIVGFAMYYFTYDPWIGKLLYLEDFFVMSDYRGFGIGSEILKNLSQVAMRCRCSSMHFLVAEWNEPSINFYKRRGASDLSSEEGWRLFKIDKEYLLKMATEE
Structure (SMILES),remaining activity
O=c1c(O)c(-c2ccc(O)c(O)c2)oc2cc(O)cc(O)c12,97.3%
COc1cc(-c2oc3cc(O)cc(O)c3c(=O)c2O)ccc1O,88%
C=C[C@H]1[C@H](O[C@@H]2O[C@H](CO)[C@@H](O)[C@H](O)[C@H]2O)OC=C(C(=O)OC)[C@H]1CCOC(=O)c1cc(O)c(O)c(O)c1,98.9%
C=CCSSSCC=C,98.4%
COc1ccc2c(c1OC)O[C@H]1c3ccc(O)cc3OC[C@@H]21,102%
CC1(C)[C@@H](O[C@@H]2O[C@H](C(=O)O)[C@@H](O)[C@H](O)[C@H]2O[C@@H]2O[C@H](C(=O)O)[C@@H](O)[C@H](O)[C@H]2O)CC[C@]2(C)[C@H]3C(=O)C=C4[C@@H]5C[C@](C)(C(=O)O)CC[C@]5(C)CC[C@@]4(C)[C@]3(C)CC[C@@H]12,78.3%
CCOC(=O)/C=C/c1ccc(O)c(OC)c1,86.1%

# Series 5
# SMILES: Cc1c(NC(=O)c2cc(C(N)=O)nc3cc(F)ccc23)c(C(F)(F)F)nn1Cc1ccc(C(C)(C)C)cc1
# Read-out: cell-free assay
# Method: competition with immobilised ligand
# Tested at: 1 µM
target,remaining binding
"Ephrin type-A receptor 7 (EPHA7, Homo sapiens, UniProt Q15375)",100%
"BMP-2-inducible protein kinase (BMP2K, Homo sapiens, UniProt Q9NSY1)",100%
"Glycogen synthase kinase-3 beta (GSK3B, Homo sapiens, UniProt P49841)",100%
"Mitogen-activated protein kinase kinase kinase 4 (MAP3K4, Homo sapiens, UniProt Q9Y6R4)",100%
"Serine/threonine-protein kinase/endoribonuclease IRE1 (ERN1, Homo sapiens, UniProt O75460)",89%
"Mitogen-activated protein kinase 11 (MAPK11, Homo sapiens, UniProt Q15759)",91%

# Mixed results
SMILES,target,quantity,result
CCN1CCN(Cc2ccc(NC(=O)Nc3ccc(Oc4cc(NC)ncn4)cc3)cc2C(F)(F)F)CC1,"Proto-oncogene tyrosine-protein kinase Src (SRC, Homo sapiens, UniProt P12931)",IC50,> 3 µM

# Excerpt of the above (series 1):
Structure (SMILES),remaining activity [%]
O=C1NC(=O)c2c1c1c3ccccc3[nH]c1n1cncc21,75.9
COc1cccc(-c2cc(=O)c3ccccc3o2)c1N,102
c1cc(-c2cnn3cc(-c4ccc(OCCN5CCCCC5)cc4)cnc23)ccn1,87.7
CNc1cc2c(Nc3cccc(Br)c3)ncnc2cn1,106
c1ccc(-c2n[nH]c3c2oc2ccccc23)cc1,88.1
CC(C)n1cnc2c(Nc3cccc(Cl)c3)nc(NCCO)nc21,42
Oc1cccc(-c2nc(N3CCOCC3)c3oc4ncccc4c3n2)c1,104
